Results from different studies.
Protocols differ between the studies behind these lines.
Cell line: BT-549

CC(=O)OC[C@H]1O[C@@H](Sc2sc(C(=O)c3ccc(C)cc3)c(N)c2-c2nc3ccccc3s2)[C@H](OC(C)=O)[C@@H](OC(C)=O)[C@@H]1OC(C)=O  growth (SRB; 10 µM, 48 h; relative to: untreated): 69.7%
CCCCCCCCC/C=C/C=C/C(=O)N[C@H](C(=O)N[C@H]1C[C@@H](O)CCNC(=O)/C=C/[C@H](C)NC1=O)[C@@H](C)O  antiproliferative concentration (trypan blue cell counting; 2 days): 0.25 µM
Cc1cc([C@H](C(=O)N2C[C@H](O)C[C@H]2C(=O)N[C@@H](CC(=O)N2CCC(N3CCC(C#Cc4ccc(C(=O)N[C@H]5C(C)(C)[C@H](Oc6ccc(C#N)c(Cl)c6)C5(C)C)cc4)CC3)CC2)c2ccc(-c3scnc3C)cc2)C(C)C)on1  IC50 (cell growth or viability; 7 days): 147 nM
O=C1Nc2ccccc2/C1=N\Nc1nnc2n1N=C(c1ccc(Cl)cc1)CS2  inhibition (cell growth or viability, SRB; 10 µM): 29%
CC/C=C\C/C=C\C/C=C\C/C=C\C/C=C\C/C=C\CCC(=O)Nc1ccn(C2OC(CO)C(O)C2(F)F)c(=O)n1 (stereo not shown)  GI50 (cell growth or viability, SRB): 45.4 nM
CC(=O)OC[C@H]1O[C@@H](Sc2sc(C(=O)c3ccc(Br)cc3)c(N)c2-c2nc3ccccc3s2)[C@H](OC(C)=O)[C@@H](OC(C)=O)[C@H]1OC(C)=O  growth (SRB; 10 µM, 48 h; relative to: untreated): 90.2%
CC(=C(c1ccc(O)cc1)c1ccc(Cl)cc1)c1ccc(Cl)cc1  GI50 (cell growth or viability, SRB): 500 nM
CCCCCCCCCCCCCCCCC1CC(=O)NCCCN(C)CCCCN(C)CCCN1C (stereo not shown)  IC50 (cell growth or viability, neutral red; 48 h): 2 µg/mL
CC(Cc1ccc(Cl)cc1)=C(c1ccc(Cl)cc1)c1ccc(OCCN(C)C)cc1  GI50 (cell growth or viability, SRB): 4950 nM
CCNS(=O)(=O)c1ccc(COc2ccc3nc4ccc(=O)cc-4oc3c2)cc1  cell invasion (Matrigel Transwell; 1 µM, 48 h): inhibited

Excerpt of the above:
CC(=O)OC[C@H]1O[C@@H](Sc2sc(C(=O)c3ccc(Br)cc3)c(N)c2-c2nc3ccccc3s2)[C@H](OC(C)=O)[C@@H](OC(C)=O)[C@H]1OC(C)=O  growth (SRB; 10 µM, 48 h; relative to: untreated): 90.2%
